Published values gathered from unrelated publications.
Numbered parts are unrelated; each lists some results of a single study.

Set 1
Target: Histone acetyltransferase KAT6A, both winged helices, GST fusion (KAT6A, Homo sapiens, UniProt Q92794, residues 1-181)
Method: protein binding microarray
Molecule type: double-stranded DNA, one strand shown
Matrix: in vitro
Concentration: not given
Notes: 8-mer, flanks averaged, mean of 2 arrays, mostly near background
Baseline: not given
Reading: higher = stronger binding
Endpoint: E-score
Residues (chain): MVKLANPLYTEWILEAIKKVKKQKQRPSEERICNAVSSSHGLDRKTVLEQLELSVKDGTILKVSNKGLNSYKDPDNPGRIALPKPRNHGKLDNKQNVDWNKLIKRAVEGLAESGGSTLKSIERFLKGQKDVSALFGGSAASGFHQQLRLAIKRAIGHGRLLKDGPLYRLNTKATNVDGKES
TACGACTA: -0.103
GCTTTTAA: 0.0795
GAGCCTGA: 0.112
GCGCGCCC: 0.352
GTTAGCCA: -0.0703
CGTTGAGC: 0.121
AATCTATG: -0.0996
AACCTCGA: -0.0833
AGAACGTC: -0.113
ACTCACTA: -0.184
CTATCAGC: -0.0462
GAATTCCA: -0.0574
ATTAACCC: -0.0167
AGCCTGAA: -0.18
AAATGCGG: 0.0991
ACGTTACT: -0.0719
CAGTTTAA: -0.092
ATACAACG: 0.0534
AAACTAAG: -0.0655
CGTCGCTC: 0.182
CCCAGCAC: -0.00827
ACACTATC: -0.0113
CCATACTA: -0.146
CGGTGCTA: 0.13
AAGTAGGC: -0.117

Set 2
Target: PABPC1L2, full length, GST fusion (mouse, UniProt A0ABA7IW68)
Method: RNAcompete
Molecule type: RNA
Matrix: in vitro
Concentration: 20 nM
Notes: 7-mer, probes averaged, single round
Baseline: mean of 7-mers
Reading: higher = stronger binding
Endpoint: 7-mer Z-score
Construct (chain): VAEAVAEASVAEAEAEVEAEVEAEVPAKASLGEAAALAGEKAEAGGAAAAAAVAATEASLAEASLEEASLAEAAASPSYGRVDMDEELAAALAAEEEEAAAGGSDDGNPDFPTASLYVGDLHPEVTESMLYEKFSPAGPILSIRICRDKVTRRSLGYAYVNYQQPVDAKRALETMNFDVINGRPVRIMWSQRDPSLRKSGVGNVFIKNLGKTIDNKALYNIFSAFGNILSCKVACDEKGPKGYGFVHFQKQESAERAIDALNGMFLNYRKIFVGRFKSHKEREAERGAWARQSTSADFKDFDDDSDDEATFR
AACCAGG: 0.144
AUCCAAC: -0.0645
CAGUAUG: 0.0551
CCAUAGG: -0.0826
GUUCUUG: -0.405
UCAUCAU: -0.307
CCAGUUG: -0.209
AUCAGUU: -0.206
GCGUUUA: -0.28
CGUAAAG: 0.158
AAAACGG: 4.15
UUGCACU: -0.248
ACUCAGU: -0.22
AAACCAA: 1.08
CCGACCC: -0.24
GAGUCAC: -0.166
AUGCGCC: -0.224
GACAAGC: -0.0174
AAAUAUA: 1.76
GUACGUA: -0.191
UACCUAU: -0.278
CUGGUUG: -0.238
UCGUUAG: -0.345
UUCAUGU: -0.353
UACACAU: -0.166

Set 3
Target: Centromere-binding protein 1, full length, N-terminal tag (CBF1, Saccharomyces cerevisiae, UniProt P17106, residues 1-351)
Chain of UniProt P17106 (whole entry, looked up): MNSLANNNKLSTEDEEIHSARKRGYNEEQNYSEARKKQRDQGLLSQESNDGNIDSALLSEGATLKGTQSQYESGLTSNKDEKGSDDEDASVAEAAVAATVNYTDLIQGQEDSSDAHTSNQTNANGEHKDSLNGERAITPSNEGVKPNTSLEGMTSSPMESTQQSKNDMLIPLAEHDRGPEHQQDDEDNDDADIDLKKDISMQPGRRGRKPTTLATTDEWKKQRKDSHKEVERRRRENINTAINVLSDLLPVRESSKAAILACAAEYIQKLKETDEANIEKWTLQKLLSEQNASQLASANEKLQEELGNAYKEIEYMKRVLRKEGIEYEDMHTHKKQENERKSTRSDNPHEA
Method: protein-binding microarray
Molecule type: double-stranded DNA, one strand shown
Matrix: in vitro
Concentration: 0.8 µM
Notes: whole 60-bp probe, no competitor
Reading: higher = stronger binding
Endpoint: fluorescence intensity
All sequences stand within: … GTCTTGATTCGCTTGACGCTGCTG
CTAATTCTCCGCGGAAACATGACAAACTTTTAGTTC: 526 a.u.
TGTACGAAGCTATACCTGACCTATATAGTAGTTAGG: 528 a.u.
GAACTGTTGCAAGCTCACGTGAAAATGTGGATTTAG: 3310 a.u.
GAACACAATTCGGATCATCAGGTTCATGATGATTAG: 558 a.u.
TGTACGAAGCTATGTCACATGACTATAGTAGTTAGG: 7430 a.u.
CTAAGTAAAAATCTACACATGACACTCAACACATTC: 955 a.u.
CTAGCCCAGATGGTTCTGATGTTCTTTATCTCTTTC: 490 a.u.
GAATAGGAAACGCATGTGGTAGCTCGTTTCGTCTAG: 524 a.u.
GAAGTGGCGCGCGATCACGGAGTTGCGTAACTGTAG: 546 a.u.
GAAAGATAGAAGAATAACATCAGCAACCAAAAATAG: 533 a.u.
CTAGTTTACAATAATCACGAAAATACATATAGGTTC: 544 a.u.
CTAAATAGTAAACGTCACCCCGAGGTTTAAAAATTC: 511 a.u.
CTAAGACGTTGACACTAGGTGGTGGTTTATGGGTTC: 524 a.u.
CCTAACTACTATATTCTCGTGCGATAGCTTCGTACA: 582 a.u.
GAACTTCAAACAAACCACGTGATGGTCTACACGTAG: 11600 a.u.
CTAAATGACTGGGAGCACGGGACCTTTGAAATTTTC: 1630 a.u.
GAAAAACATCGTTAACATCACTCAACCGGGGTGTAG: 530 a.u.
CTAACAACTAAAAATCACGAAAACAAAATGATATTC: 582 a.u.
CTAGGGATGGCTCATCACGAACAGCAAACTGAATTC: 552 a.u.
CTAGGGACAGAATGCCACCAGACTTCATGACCGTTC: 585 a.u.

Set 4
Target: Sal-like protein 4, full length isoform B (SALL4, Homo sapiens, UniProt Q9UJQ4-2, residues 1-616)
Method: universal PBM
Molecule type: double-stranded DNA, one strand shown
Matrix: in vitro
Concentration: not given
Notes: 8-mer, flanks averaged, mean of replicates
Reading: higher = stronger binding
Endpoint: E-score
CGCATAGC: -0.127
CTAAGTCC: -0.211
AGTTTACG: 0.0689
CGAGCTTA: -0.103
CCATCTTA: -0.15
TAGCCGCA: -0.252
GTACCTCA: 0.0109
ACGTGCAA: -0.0141
AGAGAGGG: -0.212
TCAGTAAA: 0.139
TATTGAAA: 0.394
ACCCTTCT: -0.00832
AGCTGCCC: -0.247
CAGTGTGC: -0.231
CAATTACC: 0.134
ATGCAAGA: 0.119
ATCGACTG: -0.135
AAGACAAA: 0.188
CTTGCGCC: -0.236
AAAGTTAT: 0.314
CAAAACAG: 0.136
ACTGCCGC: -0.307
GTGTTCAA: 0.0487
ACTTCACT: 0.0746
ATTTCGCA: 0.0882

Set 5
Target: Fragile X messenger ribonucleoprotein 1, C-terminal low-complexity region (Fmr1, Mus musculus, UniProt P35922)
Method: RNA Bind-n-Seq
Molecule type: RNA
Matrix: in vitro
Concentration: 200 nM
Notes: whole 134-nt RNA, ends assumed
With: 150 mM KCl
Baseline: input library
Reading: higher = stronger binding
Endpoint: log2 enrichment
All sequences stand within: GGGAGUUCUACAGUCCGACGAUC … UGGAAUUCUCGGGUGUCAAGG
CUCAAGUCCUGUGCUACACAUCGUAUGUACCGAAUCGGUGGAAAGGUUUUUGGAAAGUAUUAUGUUACGCCGUUCGGAUCUGCACUUCCA: -0.191
CAAGUCCUGUGCUACACAUCGUAUGUACCGAAUCGGUUUGGUUUGGAAAAAAAGGAAAGUAUUAUGUUACGCCGUUCGGAUCUGCACUUC: -0.656
AAGUCCUGUGCUACACAUCGUAUGUACCGAAUCGGUUUUUGGUUUUUGGGUUUUUGGAAAGUAUUAUGUUACGCCGUUCGGAUCUGCACU: -0.808
ACCAUGCAGGUGGACAUCUUUGGGAAGUGGGGCAAGGGGGGGAUAGGGAGGGGGGUAACACUUUGGGAACAGGUGGUCCCAGGUCGUUUC: 0.977
AGUCCUGUGCUACACAUCGUAUGUACCGAAUCGGAAAAAGGGGAAAAAGGAAAAAGGAAAGUAUUAUGUUACGCCGUUCGGAUCUGCACU: -0.606
UUGACAUGAAGACAAUGGAGACUGCAGAGAAACUGGCUAGAUUUGUUGCUCAGGUGGGACCAGAGAUCGAACAAUUCAGCAUAGAAAACA: -0.799
UGGGAGGUGGAUUUUGUUUAUUUUUUUAGCUCAUUUCCAGGGGUGGGAAUUUUUUUUUAAUAUGUGUCAUGAAUAAAGUUGUUUUUGGAA: 0.409
UGUGCUACACAUCGUAUGUACCGAAUCGGGGAAAAAGGGGAAAAAAAGGGGUUUUUUUGGGGAAAGUAUUAUGUUACGCCGUUCGGAUCU: 0.229
CUGUGCUACACAUCGUAUGUACCGAAUCGGCCCCCCCGGGCCCCCCCGGGCCCCCCCGGGGAAAGUAUUAUGUUACGCCGUUCGGAUCUG: -1.08
UGGACUUGCGGGUUCCCAUCUGGGACCAGGACAUACAGUUUCUCCCAGGAUCACAGAAGCUUGUCACCUGCACAGGGUACCACCAGGUAA: -0.535

Some of these lines once more (set 2):
AAACCAA: 1.08
UACACAU: -0.166
CAGUAUG: 0.0551
GAGUCAC: -0.166
ACUCAGU: -0.22
CUGGUUG: -0.238
UCGUUAG: -0.345
AACCAGG: 0.144
UUCAUGU: -0.353
AAAUAUA: 1.76
CCGACCC: -0.24
UUGCACU: -0.248
AUCAGUU: -0.206
